Published values pooled from the literature.
A part holds a random share of what one study measured. Substitutions count along the parent as printed.

Series 1
Target: CEP164, C-terminal peptide (human)
Method: DHFR complementation, deep sequencing
Matrix: yeast
Setting: single substitutions, model-inferred values
Baseline: wild type
Direction: higher = weaker binding
Starting sequence: PDZK1, PDZ domain 2 (human); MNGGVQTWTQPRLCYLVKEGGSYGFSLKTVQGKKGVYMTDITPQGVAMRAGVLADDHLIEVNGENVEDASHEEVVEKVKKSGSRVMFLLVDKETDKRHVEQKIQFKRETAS; partner HNRVKVYRF
Under “binding free energy change”, `W8Y` is recorded as -0.0787 kcal/mol.
For `D40V`, “binding free energy change” read 0.666 kcal/mol.
Under “binding free energy change”, `L27C` is recorded as 0.914 kcal/mol.
For `A47E`, “binding free energy change” read 1.16 kcal/mol.
For `G4I`, “binding free energy change” read 0.0986 kcal/mol.
For `T39P`, “binding free energy change” read 1.21 kcal/mol.
For `E93V`, “binding free energy change” read -0.073 kcal/mol.
Under “binding free energy change”, `G24T` is recorded as 1.16 kcal/mol.
`Y23R` — result for “binding free energy change”: 1.35 kcal/mol.
`G45A`: “binding free energy change” 1.29 kcal/mol.
For `D95A`, “binding free energy change” read -0.279 kcal/mol.
Under “binding free energy change”, `G32Q` is recorded as 0.469 kcal/mol.
Under “binding free energy change”, `R84D` is recorded as 0.123 kcal/mol.
`V66L` — result for “binding free energy change”: 0.273 kcal/mol.
`K92D` — result for “binding free energy change”: -0.0532 kcal/mol.

Series 2
Target: CCNB2, cyclin fold, Cln2 fusion (human)
Method: yeast growth competition, sequencing
Matrix: yeast
Setting: strong parent motif
Baseline: not given
Direction: higher = stronger binding
Starting sequence: PKMYT1 docking peptide (human); SFEPRNLLSLFED; partner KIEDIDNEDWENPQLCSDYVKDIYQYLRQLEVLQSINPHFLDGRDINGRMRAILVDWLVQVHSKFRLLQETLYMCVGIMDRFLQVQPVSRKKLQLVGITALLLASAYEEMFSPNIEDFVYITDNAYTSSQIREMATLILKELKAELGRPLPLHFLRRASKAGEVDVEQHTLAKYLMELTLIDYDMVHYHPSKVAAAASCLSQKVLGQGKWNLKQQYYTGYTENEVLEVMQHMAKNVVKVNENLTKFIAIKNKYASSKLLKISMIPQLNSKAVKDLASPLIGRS
For `SFEPRPLLSLFED [N6P]`, “normalised enrichment score” read -0.349.
`SFPPRNLLSLFED [E3P]`: “normalised enrichment score” 1.64.
`SFEPRNLTSLFED [L8T]`: “normalised enrichment score” 0.517.
`SFEPRNLLSLFND [E12N]`: “normalised enrichment score” 0.966.
`SPEPRNLLSLFED [F2P]`: “normalised enrichment score” 1.05.
`SFEPRNLLSNFED [L10N]` — result for “normalised enrichment score”: 0.62.
For `SCEPRNLLSLFED [F2C]`, “normalised enrichment score” read 1.78.
Under “normalised enrichment score”, `SFEPRNLLSLFEI [D13I]` is recorded as 0.243.
`SFEPRNLLSEFED [L10E]`: “normalised enrichment score” 2.59.
Under “normalised enrichment score”, `SFEPHNLLSLFED [R5H]` is recorded as -0.397.
Under “normalised enrichment score”, `DFEPRNLLSLFED [S1D]` is recorded as 1.73.
`SFEPRNLLSLNED [F11N]` — result for “normalised enrichment score”: -0.203.
For `SFEPRNLLRLFED [S9R]`, “normalised enrichment score” read 0.988.
`SFEPKNLLSLFED [R5K]`: “normalised enrichment score” 1.74.
`SFELRNLLSLFED [P4L]` — result for “normalised enrichment score”: -0.437.
`SFEPRNLLSLFWD [E12W]` — result for “normalised enrichment score”: -0.315.
`SFEPRNLLSLFRD [E12R]`: “normalised enrichment score” 0.0671.

Series 3
Target: RNA binding protein fox-1 homolog 2, RRM domain, GST-SBP tag (RBFOX2, Homo sapiens, UniProt O43251-10, residues 100-194)
Method: RNA Bind-n-Seq
Molecule type: RNA
Matrix: in vitro
Tested at: 365 nM
Setting: natural RNA segment, single round, ends assumed
Baseline: no-protein control
Direction: higher = stronger binding
Target sequence (chain): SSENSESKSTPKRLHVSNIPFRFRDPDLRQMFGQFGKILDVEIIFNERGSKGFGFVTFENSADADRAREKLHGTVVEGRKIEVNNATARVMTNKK
`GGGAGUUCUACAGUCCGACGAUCCAAUGGCCAGGUACUACACUGUCGGGGAUUAUAGGUGGACUAACCACGUCUCUGCCUCCUAAAUUCCUGUAUGGACUUGAGAUGGCUUCAUUGAAAAACCACACGGCAGAUGGAAUUCUCGGGUGCCAA` — result for “RBNS enrichment (R)”: 0.256.
Under “RBNS enrichment (R)”, `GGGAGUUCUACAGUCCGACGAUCUCAUCCUCACCAUCCAUACAUGGGAGAUAUUUAAAGUUUCUAAAGUCGAUCCCACCAGCCCUCGAUGUGCACAGGCAGUGGGUGUCAAGCUCGGGAAGUGGCUGGCUGGCUGGAAUUCUCGGGUGCCAA` is recorded as 0.521.
Under “RBNS enrichment (R)”, `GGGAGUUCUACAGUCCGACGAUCGAGAGCUCGUGUUUACUAAGCAAGCUUUUGUGUUUAUCUUCCUUAUUUUUACUGAACAUCUUCAGUACCUGGGUAAUGGAAACCCACUCUUUUUUCAUUGUAAUGACUUUUGGAAUUCUCGGGUGCCAA` is recorded as 0.598.
For `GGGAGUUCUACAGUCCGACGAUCUUCAUAUGUUUGAUGAAAACUGGCUCAAGAUGUUUGUAAAUAGAAUCAAGAGCAAAACUGCACAAACUUGCACAUUGGAAAGUGCAACAAGUUCCCGUGAUUGCAGUAAAUGGAAUUCUCGGGUGCCAA`, “RBNS enrichment (R)” read 0.688.
For `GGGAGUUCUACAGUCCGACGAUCUUUUAUGACUCCAGUCUGCAAGCAGUGUUAGGUUGACCUCAUAGGCUUUUAUGAUUCCAGUCUGCUGGUAUGAAGCAGAGCAUCAAAAAAAAUUCGUGAUUCCUUGAGUGUGGAAUUCUCGGGUGCCAA`, “RBNS enrichment (R)” read 0.635.
`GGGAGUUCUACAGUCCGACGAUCCUGAGGAGUUCGAGCAGGGCAGUCAGAUUUUUAAAGUUUUGUACAGUUUUCCUUUGUAUUCACUUCCAUUUUUACUUAAUAACUGACUUGUUGGUGGCUCUUAUUUCUGAUGGAAUUCUCGGGUGCCAA`: “RBNS enrichment (R)” 0.8.
`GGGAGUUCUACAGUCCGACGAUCAGGCAUGAAGUCAGCCUCCCAAGGCAGGAUCUGUUGUUCAUUACCCCAUGGCAUCCUUUCAGGACAACCCCAGAGGGUGUUGUGAUGGGGAGCAGCAGGCCUGGGGCAAGUGGAAUUCUCGGGUGCCAA`: “RBNS enrichment (R)” 1.33.
`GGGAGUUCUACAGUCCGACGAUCCAUGGGCAAAUGAAAAGGGCUAUUAAAAUUUUUUUACACCUUGGAAAAUUGCAGGCUUGGUGCAGAGCGCUCUGUCAUCUUCACCCUGGGAUGUAGGAUUACCUAGCUAUUGGAAUUCUCGGGUGCCAA`: “RBNS enrichment (R)” 0.508.
`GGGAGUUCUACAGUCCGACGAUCUGCCACGGUAAGAUGUAUAGUAUGGCCAUCCACACUAAUUGUAGGAGGACAGCUAAAUGGACAGUCAGUCACUUUGAGGUCACUGCAUUUGACUGGAAAUGUAUAAUGUGUGGAAUUCUCGGGUGCCAA` — result for “RBNS enrichment (R)”: 0.441.
`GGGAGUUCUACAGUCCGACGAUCGCAACUUGUAUGUUGAAAUGAUUGUAUGUUCUGUAUGAAAUGUUCCACUUGAGAUUUUUACAAAAGCACCUGUAUUAUCUCUUUUAAAAAUUAAACUUUUUUUUUGCUUUUGGAAUUCUCGGGUGCCAA`: “RBNS enrichment (R)” 1.02.
For `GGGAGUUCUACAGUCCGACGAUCCCUAACUGUGUGUUUUCAGGGACAAUGCCAUCCAUGUUUGUGCUGUAGACUUGCUGCUGCUGAAUCCUUUCUGGGGACUUUCUCAUCGGGCAGGGAGCAGAGGGCUUCUCUGGAAUUCUCGGGUGCCAA`, “RBNS enrichment (R)” read 0.683.
For `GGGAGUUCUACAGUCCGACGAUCAGGAACCUGGGGCUGAACAGGUUAUCCCUGUCAGGAGCCCUGGACUGGGCUGCAUCUCAGCCCCACCUGCAUGGUAUCCAGCUCCCAUCCACUUCUCACCCUUCUUUCCUUGGAAUUCUCGGGUGCCAA`, “RBNS enrichment (R)” read 0.293.

Series 4
Target: Interferon regulatory factor 7, full length, phosphomimetic (IRF7, Homo sapiens, UniProt Q92985, residues 1-503, S471D/S472D/S475D/S476D/S477D/S483D/S484D/S487D)
Chain of UniProt Q92985 (whole entry, unmodified, looked up): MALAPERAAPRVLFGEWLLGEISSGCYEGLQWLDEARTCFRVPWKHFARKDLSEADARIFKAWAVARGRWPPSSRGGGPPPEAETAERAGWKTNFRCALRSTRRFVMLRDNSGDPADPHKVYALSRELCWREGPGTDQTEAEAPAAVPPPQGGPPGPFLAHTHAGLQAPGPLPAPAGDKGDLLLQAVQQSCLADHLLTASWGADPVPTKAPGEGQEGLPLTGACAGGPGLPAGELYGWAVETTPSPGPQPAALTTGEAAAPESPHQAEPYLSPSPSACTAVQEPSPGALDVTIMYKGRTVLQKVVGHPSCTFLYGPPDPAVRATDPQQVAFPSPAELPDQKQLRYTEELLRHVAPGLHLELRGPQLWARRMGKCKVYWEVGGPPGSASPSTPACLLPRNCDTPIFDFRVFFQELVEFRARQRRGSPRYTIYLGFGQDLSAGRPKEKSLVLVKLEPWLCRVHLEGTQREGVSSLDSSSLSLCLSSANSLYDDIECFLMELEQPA
Method: protein-binding microarray
Molecule type: double-stranded DNA, one strand shown
Matrix: in vitro
Tested at: 2200 nM top
Setting: 60-bp whole probe
With: salmon DNA 0.4 mg/ml
Baseline: random background probes
Direction: higher = stronger binding
Shared flanks, not repeated: GCCTAGCAC … GTCTTGATTCGCTTGACGCTGCTG
Under “fitted relative affinity”, `TTAGGTTTCGGTAACGGTTAGTGCTAG` is recorded as 2.92 z-score.
`TTAGGTTGCGACTTTCGGTTAGTGCTA` — result for “fitted relative affinity”: 6.2 z-score.
Under “fitted relative affinity”, `TTAGATTTCAGTTTAGATTAGTGCTAG` is recorded as 2.07 z-score.
`CTCACCGCTGGAGTTCTGCGGTGCTAG` — result for “fitted relative affinity”: -0.276 z-score.
Under “fitted relative affinity”, `TTAGGTTTCCTTATCCTTTCGTGCTAG` is recorded as 2.41 z-score.
For `GCATCTATCTTAAATAGGGACGTGCTA`, “fitted relative affinity” read -0.0891 z-score.
Under “fitted relative affinity”, `GACGAACTGAGTATCGCGACGTGCTAG` is recorded as -0.133 z-score.
`TTAGAACTGGGGACTGGATTTGTGCTA` — result for “fitted relative affinity”: -0.17 z-score.
For `GACGGTTTCCTTATCTTGACGTGCTAG`, “fitted relative affinity” read 2.67 z-score.
Under “fitted relative affinity”, `TTAGGTTTCGGTCTCGTTTAGTGCTAG` is recorded as 6.69 z-score.
Under “fitted relative affinity”, `CACTTTCTTTACTTCACTCTGTGCTAG` is recorded as 3.87 z-score.
Under “fitted relative affinity”, `TCATATTAAATTTTCACACTGTGCTAG` is recorded as 1.26 z-score.
`TCATGCCTATTTTTCCCACTGTGCTAG`: “fitted relative affinity” 1.79 z-score.
Under “fitted relative affinity”, `TACGATCTCAGTCTCGAGACGTGCTAG` is recorded as 0.59 z-score.
`TTACATTTCAGACTGGATTAGTGCTAG`: “fitted relative affinity” 1.24 z-score.
`TGCCTTTTGCTTTACTGATGGTGCTAG`: “fitted relative affinity” 2.31 z-score.
`TTTTCATTATTGTGTCAACTTGTGCTA` — result for “fitted relative affinity”: 2.33 z-score.
`TCAGCTCTTGTTTTCACACTGTGCTAG` — result for “fitted relative affinity”: 1.96 z-score.
For `CTGGAGAGACGGAGTCTCCAGTGCTAG`, “fitted relative affinity” read -0.56 z-score.
For `TTAGGTTTCCTTAACCTTTAGTGCTAG`, “fitted relative affinity” read 0.732 z-score.
For `TCAGGTATTTTTCTAAAACTGTGCTAG`, “fitted relative affinity” read 0.081 z-score.
For `GACGGACTGCTTTTGCTGACGTGCTAG`, “fitted relative affinity” read 0.0986 z-score.
`TCACTAATAAATATGAGACTGTGCTAG`: “fitted relative affinity” -0.345 z-score.
`CACAACCAAACAAGAAGATGGTGCTAG` — result for “fitted relative affinity”: -0.212 z-score.
For `GAGGGTATCGGACTGGGGACGTGCTAG`, “fitted relative affinity” read -0.745 z-score.

Series 5
Target: ABI1, truncated, D143A, DHFR fusion (Arabidopsis thaliana)
Method: DHFR PCA, deep sequencing
Matrix: yeast
Setting: methotrexate growth selection, single substitutions
With: (+)-ABA 2500 µM
Baseline: wild-type fitted maximum
Direction: higher = stronger binding
Starting sequence: PYL1, truncated, DHFR fusion (Arabidopsis thaliana); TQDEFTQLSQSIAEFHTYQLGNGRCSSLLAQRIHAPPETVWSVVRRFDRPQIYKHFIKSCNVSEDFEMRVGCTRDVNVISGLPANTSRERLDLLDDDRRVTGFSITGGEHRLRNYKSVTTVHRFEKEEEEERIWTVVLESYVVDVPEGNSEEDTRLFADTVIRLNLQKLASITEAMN; partner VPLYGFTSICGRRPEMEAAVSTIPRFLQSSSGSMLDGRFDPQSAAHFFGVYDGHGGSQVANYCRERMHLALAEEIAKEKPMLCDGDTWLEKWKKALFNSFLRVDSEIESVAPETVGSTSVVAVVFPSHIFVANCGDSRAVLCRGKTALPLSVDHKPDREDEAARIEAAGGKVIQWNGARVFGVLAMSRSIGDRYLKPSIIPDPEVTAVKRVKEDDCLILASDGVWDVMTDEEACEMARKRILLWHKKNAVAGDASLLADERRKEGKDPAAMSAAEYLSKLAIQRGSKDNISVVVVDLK
`R111H`: “relative binding score” 73.5%.
Under “relative binding score”, `I12A` is recorded as 82.4%.
`Y115C`: “relative binding score” 26.4%.
`T173Q` — result for “relative binding score”: 75.7%.
`Y141M`: “relative binding score” 62.7%.
Under “relative binding score”, `R155K` is recorded as 92.2%.
Under “relative binding score”, `R49V` is recorded as 90.6%.
`A35R` — result for “relative binding score”: 76.9%.
`F66D` — result for “relative binding score”: 97.9%.
For `M68S`, “relative binding score” read 87.6%.
`H55D`: “relative binding score” 94.3%.
For `T106A`, “relative binding score” read 92.2%.

For quick reference, copied from above (series 5):
`F66D` — result for “relative binding score”: 97.9%.
Under “relative binding score”, `R49V` is recorded as 90.6%.
`H55D`: “relative binding score” 94.3%.
Under “relative binding score”, `R155K` is recorded as 92.2%.
For `T106A`, “relative binding score” read 92.2%.
Under “relative binding score”, `I12A` is recorded as 82.4%.
`Y115C`: “relative binding score” 26.4%.
`T173Q` — result for “relative binding score”: 75.7%.
For `M68S`, “relative binding score” read 87.6%.
`A35R` — result for “relative binding score”: 76.9%.
`Y141M`: “relative binding score” 62.7%.
`R111H`: “relative binding score” 73.5%.
